Assay results collected from several papers.
Parts stem from different laboratories: compare values within a part only.
UniProt P28223, sequence (whole entry, looked up): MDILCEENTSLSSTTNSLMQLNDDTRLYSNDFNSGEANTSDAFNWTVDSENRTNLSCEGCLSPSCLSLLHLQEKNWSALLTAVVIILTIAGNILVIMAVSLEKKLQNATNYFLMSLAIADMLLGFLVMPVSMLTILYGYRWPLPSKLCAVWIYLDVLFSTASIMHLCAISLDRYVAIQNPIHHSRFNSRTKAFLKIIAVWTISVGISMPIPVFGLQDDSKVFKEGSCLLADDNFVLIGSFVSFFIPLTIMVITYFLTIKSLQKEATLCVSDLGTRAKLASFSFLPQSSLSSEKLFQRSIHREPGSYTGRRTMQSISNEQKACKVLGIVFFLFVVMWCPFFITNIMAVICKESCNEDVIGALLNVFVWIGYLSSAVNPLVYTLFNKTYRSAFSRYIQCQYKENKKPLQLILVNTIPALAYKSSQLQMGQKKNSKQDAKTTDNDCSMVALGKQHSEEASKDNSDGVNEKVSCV

Set 1 — technique: RNA Bind-n-Seq; form: RNA; matrix: in vitro; concentration: 200 nM; setting: whole 134-nt RNA, ends assumed; with: 150 mM KCl; baseline: input library; reading: higher = stronger binding
Target: Ras GTPase-activating protein-binding protein 1, full length (G3BP1, Homo sapiens, UniProt Q13283)
UniProt Q13283, sequence (whole entry, looked up): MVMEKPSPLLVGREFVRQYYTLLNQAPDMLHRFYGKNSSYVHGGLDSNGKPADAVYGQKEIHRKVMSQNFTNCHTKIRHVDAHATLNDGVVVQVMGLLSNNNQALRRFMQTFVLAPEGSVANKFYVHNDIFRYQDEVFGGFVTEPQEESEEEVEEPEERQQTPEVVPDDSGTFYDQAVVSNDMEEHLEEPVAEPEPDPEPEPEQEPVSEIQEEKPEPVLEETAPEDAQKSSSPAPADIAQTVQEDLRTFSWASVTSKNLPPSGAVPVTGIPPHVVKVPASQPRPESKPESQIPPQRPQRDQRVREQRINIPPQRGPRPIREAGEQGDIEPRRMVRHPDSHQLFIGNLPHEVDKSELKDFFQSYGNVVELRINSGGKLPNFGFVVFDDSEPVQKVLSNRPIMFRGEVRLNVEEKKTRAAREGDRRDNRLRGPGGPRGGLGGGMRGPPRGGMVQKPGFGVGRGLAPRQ
All sequences stand within: GGGAGUUCUACAGUCCGACGAUC … UGGAAUUCUCGGGUGUCAAGG
Sequence | log2 enrichment
CUGUGCUACACAUCGUAUGUACCGAAUCGGGUUUUUUUGGUUUUUUUGGGGUUUUUUUGGGGAAAGUAUUAUGUUACGCCGUUCGGAUCU | -0.987
UCCUCAAGUCCUGUGCUACACAUCGUAUGUACCGAAUCGGUGGGUGGGUGGAAAGUAUUAUGUUACGCCGUUCGGAUCUGCACUUCCAGC | 0.0218
GUCCUGUGCUACACAUCGUAUGUACCGAAUCGGUUUUUUGGUUUUUUGGGGUUUUUUGGAAAGUAUUAUGUUACGCCGUUCGGAUCUGCA | -0.902
CCUCAAGUCCUGUGCUACACAUCGUAUGUACCGAAUCGGGCCGGCCGGCCGGGAAAGUAUUAUGUUACGCCGUUCGGAUCUGCACUUCCA | 0.271
UUGUCUUCUGAGAUGUUGGGCCCCUCUUGGGAUGGAGAUGAAGCAGAAUCCACUGGUGAAAUCAUUAGACUUGGAGACACAGCACACACC | 0.352
ACCAUGCAGGUGGGCAUCUUUGGGAGGUGGGGCAAGGGGGGGAUAGGGAGGGGGGUAACACUUUGGGAACAGGUGGUCCCAGGUCGUUUC | 1.3
AGUCCUGUGCUACACAUCGUAUGUACCGAAUCGGGGCCCCGGCCCCGGGCCCCGGGGAAAGUAUUAUGUUACGCCGUUCGGAUCUGCACU | -1.01
GUCCUGUGCUACACAUCGUAUGUACCGAAUCGGGAAAAAGGAAAAAGGGGAAAAAGGGAAAGUAUUAUGUUACGCCGUUCGGAUCUGCAC | -0.703

Set 2 — technique: RNAcompete; form: RNA; matrix: in vitro; concentration: 20 nM; setting: 7-mer, probes averaged, single round; baseline: mean of 7-mers; reading: higher = stronger binding
Target: PABPC1L2, full length, GST fusion (mouse, UniProt A0ABA7IW68)
Residues (chain): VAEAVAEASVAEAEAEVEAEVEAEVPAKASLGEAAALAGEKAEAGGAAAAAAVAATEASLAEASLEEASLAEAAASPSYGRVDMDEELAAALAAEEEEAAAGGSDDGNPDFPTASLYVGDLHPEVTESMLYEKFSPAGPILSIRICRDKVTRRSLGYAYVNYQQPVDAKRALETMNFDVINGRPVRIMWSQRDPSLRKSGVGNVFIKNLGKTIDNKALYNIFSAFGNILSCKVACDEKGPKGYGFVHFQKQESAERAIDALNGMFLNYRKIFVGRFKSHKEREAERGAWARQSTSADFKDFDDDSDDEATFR
Sequence | 7-mer Z-score
GGGGGCG | 0.452
GACACGA | 0.00979
GCUUCAG | -0.197
CAGGUGU | -0.0844
GUGCACU | -0.257
UCAGAUA | 0.0587
AUUUAUA | 0.24
UCCUGGC | -0.202

Mixed results
Substance | target | effect on | form | concentration | measurement | value
COc1ccc2c(c1)O[C@H](c1ccc(OC)c(OC)c1)C[C@@H]2NC(=O)C1(c2ccc3c(c2)OC(F)(F)O3)CC1 | 5-hydroxytryptamine receptor 2A (HTR2A, Homo sapiens, UniProt P28223) | ligand displacement | – | 10 µM | inhibition | 8.84%
HADDIPVPV | HLA class I histocompatibility antigen, C alpha chain, allele C*04:01 (Homo sapiens, UniProt P10321) | peptide-MHC binding | peptide | concentration not given | binding | inactive

Some of these lines once more (set 1):
Sequence | log2 enrichment
GUCCUGUGCUACACAUCGUAUGUACCGAAUCGGUUUUUUGGUUUUUUGGGGUUUUUUGGAAAGUAUUAUGUUACGCCGUUCGGAUCUGCA | -0.902
